Experimental data of several laboratories.
Protocols differ between the studies behind these lines.
Target: Serine/threonine-protein kinase STK11 (STK11, Homo sapiens, UniProt Q15831)

Nc1ncc(-c2cc(-c3cnn(CC(F)(F)F)c3)ncc2F)nc1C(=O)NC1CNCC(F)C1 (stereo not shown)
remaining activity (enzyme activity; 1 µM; relative to: DMSO control): 95.2%

C=CC(=O)N1CCCC(n2c(=O)c3ncccc3n(Cc3ccc(Oc4ccccc4)cc3)c2=O)C1 (stereo not shown)
remaining binding (cell-free assay, competition with immobilised ligand; 1 µM): 87%

COc1ccc(NC(=O)Nc2ccc3c(c2)C(=O)N(C(C)CO)CC(C)C(CN(C)Cc2ccc4c(c2)OCO4)O3)cc1 (stereo not shown)
remaining binding (binding, competition with immobilised ligand; 10 µM): 39%

CNC(=O)C1CCN(c2cc(C)c(F)cc2NC(=O)c2ccc(-c3cc(O)ccc3C)c(C)c2)CC1
remaining binding (binding, competition with immobilised ligand; 1 µM): 81%

Nc1ncc2c(n1)-c1c([nH]c3ccc(C4=CCOCC4)cc13)CCC2
remaining binding (binding, competition with immobilised ligand; 1 µM): 46%

NC(=O)[C@@H](O)C[C@H]1CCc2sc3ncnc(O[C@H]4CC[C@H](N5CCOCC5)CC4)c3c21
inhibition (enzyme activity, inhibitor; 10 µM): 33%

Cc1ccc(-c2c(/C=C(\C#N)C(=O)NC(C)C)n(CCCO)c3ncnc(N)c23)cc1
remaining binding (cell-free assay, competition with immobilised ligand; 1 µM): 100%

C=C1CCCCCCCCCC(CO)C1=O (stereo not shown)
remaining binding (cell-free assay, competition with immobilised ligand; 10 µM): 100%

Cc1cnc2nc1Nc1cccc(c1)COC/C=C/COCc1cc(ccc1OCCN1CCOCC1)N2
remaining binding (binding, competition with immobilised ligand; 0.1 µM): 57%

COc1c(Cl)cccc1Nc1c(-c2ccncc2C#C[C@@]2(C)CCCN2C(=O)/C=C/CN(C)C)[nH]c2c1C(=O)NCC2
remaining binding (binding, competition with immobilised ligand; 3 µM): 53%

CNS(=O)(=O)Nc1nccc(Cc2c(C)c3ccc(Oc4ncccc4F)cc3oc2=O)c1F
remaining binding (binding, competition with immobilised ligand; 10 µM): 76%

O=C=[N][Ru-4]123([n]4c5ccc(O)cc5c5c6c(c7cc(F)c[n+]1c7c54)C(=O)NC6=O)[S+]1CC[S+]2CC[S+]3CC1 (stereo not shown)
remaining activity (enzyme activity; 100 nM, human enzyme, with: 10 µM ATP; relative to: untreated): 106%

CN1CCN(Cc2ccc(NC(=O)c3cccc(C#Cc4cnc(N)c5ncccc45)c3)cc2C(F)(F)F)CC1
remaining binding (cell-free assay, competition with immobilised ligand; 50 nM): 69%

CN1CC[C@@H](COc2cnc(C#N)cc2-c2ccn3nc(NC(=O)C4CC4)cc3c2)C1
inhibition (enzyme activity, inhibitor; 1 µM): 5%

COc1cc(Nc2nc(C)cc(-c3cnn4nc(OC)ccc34)n2)cc(C(F)(F)F)c1
remaining activity (inhibitor; 1 µM, LKB1; relative to: control): 100%

CC(=O)N1c2ccc(-c3ccc(CNC(=O)c4cn5cc(-c6cnc(N)nc6)nc(N6CCOCC6)c5n4)cc3)cc2CC[C@@H]1C
remaining binding (KINOMEscan; 10 µM): 100%
